Measured values gathered from unrelated publications.
Protocols differ between the studies behind these lines. “And” joins repeats or separate records; there may be more than shown. pKd: −log10 of the molar value.
B1: PF1070 1-140 D101A (Pyrococcus furiosus, UniProt Q8U1Y4); sequence looked up; chain MPSSSKSDFSFSTLIIPQHYLRAILKVVSSSSVEVCGFLFGKENRVLKVRFIRNRLNSPVEFEMDPEEMLKALEEAEQENLEVVGIFHSHIACPPIPSGKALEGMKRWPVIWLIVNEKGEYKAWILSEKNKISEVKIVVE
B2: Nefl 85-415 (Mus musculus, UniProt P08551); sequence looked up; chain SIRTQEKAQLQDLNDRFASFIERVHELEQQNKVLEAELLVLRQKHSEPSRFRALYEQEIRDLRLAAEDATNEKQALQGEREGLEETLRNLQARYEEEVLSREDAEGRLMEARKGADEAALARAELEKRIDSLMDEIAFLKKVHEEEIAELQAQIQYAQISVEMDVSSKPDLSAALKDIRAQYEKLAAKNMQNAEEWFKSRFTVLTESAAKNTDAVRAAKDEVSESRRLLKAKTLEIEACRGMNEALEKQLQELEDKQNADISAMQDTINKLENELRSTKSEMARYLKEYQDLLNVKMALDIEIAAYRKLLEGEETRLSFTSVGSITSGYSQ
B3: TGFBI 45-632 R124H (Homo sapiens, UniProt Q15582); sequence looked up; chain GPNVCAVQKVIGTNRKYFTNCKQWYQRKICGKSTVISYECCPGYEKVPGEKGCPAALPLSNLYETLGVVGSTTTQLYTDHTEKLRPEMEGPGSFTIFAPSNEAWASLPAEVLDSLVSNVNIELLNALRYHMVGRRVLTDELKHGMTLTSMYQNSNIQIHHYPNGIVTVNCARLLKADHHATNGVVHLIDKVISTITNNIQQIIEIEDTFETLRAAVAASGLNTMLEGNGQYTLLAPTNEAFEKIPSETLNRILGDPEALRDLLNNHILKSAMCAEAIVAGLSVETLEGTTLEVGCSGDMLTINGKAIISNKDILATNGVIHYIDELLIPDSAKTLFELAAESDVSTAIDLFRQAGLGNHLSGSERLTLLAPLNSVFKDGTPPIDAHTRNLLRNHIIKDQLASKYLYHGQTLETLGGKKLRVFVYRNSLCIENSCIAAHDKRGRYGTLFTMDRVLTPPMGTVMDVLKGDNRFSMLVAAIQSAGLTETLNREGVYTVFAPTNEAFRALPPRERSRLLGDAKELANILKYHIGDEILVSGGIGALVRLKSLQGDKLEVSLKNNVVSVNKEPVAEPDIMATNGVVHVITNVL
B4: ACAT1 35-427 C126A (Homo sapiens, UniProt P24752); chain SKPTLKEVVIVSATRTPIGSFLGSLSLLPATKLGSIAIQGAIEKAGIPKEEVKEAYMGNVLQGGEGQAPTRQAVLGAGLPISTPCTTINKVAASGMKAIMMASQSLMCGHQDVMVAGGMESMSNVPYVMNRGSTPYGGVKLEDLIVKDGLTDVYNKIHMGSCAENTAKKLNIARNEQDAYAINSYTRSKAAWEAGKFGNEVIPVTVTVKGQPDVVVKEDEEYKRVDFSKVPKLKTVFQKENGTVTAANASTLNDGAAALVLMTADAAKRLNVTPLARIVAFADAAVEPIDFPIAPVYAASMVLKDVGLKKEDIAMWEVNEAFSLVVLANIKMLEIDPQKVNINGGAVSLGHPIGMSGARIVGHLTHALKQGEYGLASICNGGGGASAMLIQKL
B5: spnA dimerization element 1877-1944 (Saccharopolyspora spinosa, UniProt Q9ALM6); sequence looked up; chain ALRESSAGDMGRRVEAKFWGAVEHEDVESLARVLGIVDDGAAVDSLRSALPVLAGWQRTRTTESIMDQ
B6: Saro_1862 1-406 E16K (Novosphingobium aromaticivorans, UniProt Q2G771); chain MTDKPSVLFICTQDTKEEEARFTRAALEAAGVEVVHLDPSVRRSLGGAEISPEMVAQAGGMTIEEVRALGHEGKCQDAMIRGAIAAAHEWDARHPVSGILAVGGSMGSALAGALMQSFPYGLPKLIVSTMASGFTKPYMGVKDIAMMNAVTDISGINTISRDVFRNAANAVAGMAKGYDRDKGPEKPLVLITTLGTTETSVKRIRQALESDGCEVMVFHSSGAGGPTLDGLAADKDVALVLDLSPTEILDHLFGGLADAGPDRGRAALRKGIPTILAPGNADFIIGGPIDAAEAQFPGRRYHQHNPQLTAVRTNVADLRKLADHLAANVREAKGPVRVFTPLKGFSSHDSETGHLLDLSVPGPFAEYLASVMPGHVPVTAVDAHFNDEAFSSAVIAAAREMLAAKN
B7: ADH1 mature (UniProt P00330); N-terminal acetylation; sequence looked up; chain MSIPETQKGVIFYESHGKLEYKDIPVPKPKANELLINVKYSGVCHTDLHAWHGDWPLPVKLPLVGGHEGAGVVVGMGENVKGWKIGDYAGIKWLNGSCMACEYCELGNESNCPHADLSGYTHDGSFQQYATADAVQAAHIPQGTDLAQVAPILCAGITVYKALKSANLMAGHWVAISGAAGGLGSLAVQYAKAMGYRVLGIDGGEGKEELFRSIGGEVFIDFTKEKDIVGAVLKATDGGAHGVINVSVSEAAIEASTRYVRANGTTVLVGMPAGAKCCSDVFNQVVKSISIVGSYVGNRADTREALDFFARGLVKSPIKVVGLSTLPEIYEKMEKGQIVGRYVVDTSK
B8: lacI 1-360 (Escherichia coli, UniProt P03023); chain MKPVTLYDVAEYAGVSYQTVSRVVNQASHVSAKTREKVEAAMAELNYIPNRVAQQLAGKQSLLIGVATSSLALHAPSQIVAAIKSRADQLGASVVVSMVERSGVEACKAAVHNLLAQRVSGLIINYPLDDQDAIAVEAACTNVPALFLDVSDQTPINSIIFSHEDGTRLGVEHLVALGHQQIALLAGPLSSVSARLRLAGWHKYLTRNQIQPIAEREGDWSAMSGFQQTMQMLNEGIVPTAMLVANDQMALGAMRAITESGLRVGADISVVGYDDTEDSSCYIPPLTTIKQDFRLLGQTSVDRLLQLSQGQAVKGNQLLPVSLVKRKTTLAPNTQTASPRALADSLMQLARQVSRLESGQ
B9: SERPINA1 25-347 C232S (Homo sapiens, UniProt P01009); sequence looked up; chain EDPQGDAAQKTDTSHHDQDHPTFNKITPNLAEFAFSLYRQLAHQSNSTNIFFSPVSIATAFAMLSLGTKADTHDEILEGLNFNLTEIPEAQIHEGFQELLRTLNQPDSQLQLTTGNGLFLSEGLKLVDKFLEDVKKLYHSEAFTVNFGDTEEAKKQINDYVEKGTQGKIVDLVKELDRDTVFALVNYIFFKGKWERPFEVKDTEEEDFHVDQVTTVKVPMMKRLGMFNIQHSKKLSSWVLLMKYLGNATAIFFLPDEGKLQHLENELTHDIITKFLENEDRRSASLHLPKLSITGTYDLKSVLGQLGITKVFSNGADLSGVTE
B10: Streptavidin N23A/S27D/S45A (Streptomyces avidinii, UniProt P22629); sequence looked up; chain DPSKDSKAQVSAAEAGITGTWYAQLGDTFIVTAGADGALTGTYEAAVGNAESRYVLTGRYDSAPATDGSGTALGWTVAWKNNYRNAHSATTWSGQYVGGAEARINTQWLLTSGTTEANAWKSTLVGHDTFTKVKPSAASIDAAKKAGVNNGNPLDAVQQ
B11: dlg1 1-97 A8T (Drosophila melanogaster, UniProt P31007); sequence looked up; chain MPVKKQETHRALELLEDYHARLSEPQDRALRIAIERVIRIFKSRLFQALLDIQEFYELTLLDDSKSIQQKTAETLQIATKWEKDGQAVKIADFIKSS
B12: pycC AGS-C cyclase domain 320-450 (Escherichia coli, UniProt P0DV24); sequence looked up; chain QFNFECFVIEDNKEVLYNSVSRFLPKKRRLTFKLSIYPGPGIGDLKIIFCKRNHGQEAKDDLSEDYSISIEDNKLIRVKNADNLSLLRKDGCYVLTVPEETLFRGLHTMEVIVRGNHETLFYRNIIGVYIK
B13: PHYA F389E (Arabidopsis thaliana, UniProt P14712); phytochromobilin thioether linked; chain GMSGSRPTQSSEGSRRSRHSARIIAQTTVDAKLHADFEESGSSFDYSTSVRVTGPVVENQPPRSDKVTTTYLHHIQKGKLIQPFGCLLALDEKTFKVIAYSENASELLTMASHAVPSVGEHPVLGIGTDIRSLFTAPSASALQKALGFGDVSLLNPILVHCRTSAKPFYAIIHRVTGSIIIDFEPVKPYEVPMTAAGALQSYKLAAKAITRLQSLPSGSMERLCDTMVQEVFELTGYDRVMAYKFHEDDHGEVVSEVTKPGLEPYLGLHYPATDIPQAARFLFMKNKVRMIVDCNAKHARVLQDEKLSFDLTLCGSTLRAPHSCHLQYMANMDSIASLVMAVVVNEEDGEGDAPDATTQPQKRKRLWGLVVCHNTTPRFVPFPLRYACEELAQVFAIHVNKEVELDNQMVEKNILRTQTLLCDMLMRDAPLGIVSQSPNIMDLVKCDGAALLYKDKIWKLGTTPSEFHLQEIASWLCEYHMDSTGLSTDSLHDAGFPRALSLGDSVCGMAAVRISSKDMIFWFRSHTAGEVRWGGAKHDPDDRDDARRMHPRSSFKAFLEVVKTRSLPWKDYEMDAIHSLQLILRNAFKDSETTDVNTKVIYSKLNDLKIDGIQELEAVTSEMVRLIETATVPILAVDSDGLVNGWNTKIAELTGLSVDEAIGKHFLTLVEDSSVEIVKRMLENALEGTEEQNVQFEIKTHLSRADAGPISLVVNACASRDLHENVVGVCFVAHDLTGQKTVMDKFTRIEGDYKAIIQNPNPLIPPIFGTDEFGWCTEWNPAMSKLTGLKREEVIDKMLLGEVFGTQKSCCRLKNQEAFVNLGIVLNNAVTSQDPEKVSFAFFTRGGKYVECLLCVSKKLDREGVVTGVFCFLQLASHELQQALHVQRLAERTAVKRLKALAYIKRQIRNPLSGIMFTRKMIEGTELGPEQRRILQTSALCQKQLSKILDDSDLESIIEGCLDLEMKEFTLNEVLTASTSQVMMKSNGKSVRITNETGEEVMSDTLYGDSIRLQQVLADFMLMAVNFTPSGGQLTVSASLRKDQLGRSVHLANLEIRLTHTGAGIPEFLLNQMFGTEEDVSEEGLSLMVSRKLVKLMNGDVQYLRQAGKSSFIITAELAAANK
Sequence of UniProt P26368 (whole entry, looked up): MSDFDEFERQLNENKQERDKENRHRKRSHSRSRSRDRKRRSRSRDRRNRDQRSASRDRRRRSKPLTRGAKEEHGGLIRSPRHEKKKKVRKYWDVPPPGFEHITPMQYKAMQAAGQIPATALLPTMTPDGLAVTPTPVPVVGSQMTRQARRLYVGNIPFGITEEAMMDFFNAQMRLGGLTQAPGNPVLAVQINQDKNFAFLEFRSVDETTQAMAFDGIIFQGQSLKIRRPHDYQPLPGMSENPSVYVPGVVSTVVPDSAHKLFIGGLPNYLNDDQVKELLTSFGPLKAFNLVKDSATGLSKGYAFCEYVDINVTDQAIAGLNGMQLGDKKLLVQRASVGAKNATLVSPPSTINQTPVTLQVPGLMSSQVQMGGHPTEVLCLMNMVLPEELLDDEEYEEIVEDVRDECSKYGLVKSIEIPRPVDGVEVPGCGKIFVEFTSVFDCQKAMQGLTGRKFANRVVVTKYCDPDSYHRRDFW
Sequence of UniProt P40925 (whole entry, looked up): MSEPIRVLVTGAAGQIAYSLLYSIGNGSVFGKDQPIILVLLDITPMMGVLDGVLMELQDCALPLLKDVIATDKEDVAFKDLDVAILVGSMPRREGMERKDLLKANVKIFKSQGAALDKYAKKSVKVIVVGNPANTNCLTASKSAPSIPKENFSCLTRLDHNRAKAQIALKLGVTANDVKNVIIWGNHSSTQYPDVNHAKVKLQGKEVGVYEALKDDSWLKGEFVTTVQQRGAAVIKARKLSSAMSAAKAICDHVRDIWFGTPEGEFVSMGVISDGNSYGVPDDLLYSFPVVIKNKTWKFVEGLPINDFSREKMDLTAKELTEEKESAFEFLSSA
Sequence of UniProt P04176 (whole entry, looked up): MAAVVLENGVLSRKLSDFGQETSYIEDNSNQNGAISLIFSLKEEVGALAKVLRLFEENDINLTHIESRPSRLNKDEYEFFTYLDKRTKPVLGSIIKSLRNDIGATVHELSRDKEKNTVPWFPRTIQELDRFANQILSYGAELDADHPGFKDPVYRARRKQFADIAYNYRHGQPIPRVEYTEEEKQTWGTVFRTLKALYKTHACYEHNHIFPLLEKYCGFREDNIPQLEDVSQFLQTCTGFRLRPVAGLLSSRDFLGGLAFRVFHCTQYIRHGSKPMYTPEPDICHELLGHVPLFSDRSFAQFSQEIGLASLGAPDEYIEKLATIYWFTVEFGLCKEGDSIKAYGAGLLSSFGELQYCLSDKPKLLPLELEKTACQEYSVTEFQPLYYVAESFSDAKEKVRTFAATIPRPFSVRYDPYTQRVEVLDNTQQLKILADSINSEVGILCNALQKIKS

| Substance | tested on | test | test system | conditions | how to read | quantity | result |
| --- | --- | --- | --- | --- | --- | --- | --- |
| NEFL (Homo sapiens, UniProt P07196) | itself | native MS | – | – | – | subunits per oligomer | 2 |
| GUCUUUUUG (ssRNA) | U2AF2 148-342 (Homo sapiens, UniProt P26368) | sequencing of bound RNA | RNA | motif only | – | pKd | 5.03 |
| B1 (PF1070 1-140 D101A) | itself | SEC | – | – | – | subunits per oligomer | 2 |
| Pah (Rattus norvegicus, UniProt P04176) | itself | native gel | – | – | – | subunits per oligomer | 2 |
| B2 (Nefl 85-415) | itself | AUC, electron microscopy | – | – | – | subunits per oligomer | 2 and 4 |
| VSRVSREELEDRFLRFHDENILLKQHARKQEDKIKRMATKLIRLVNDKKRYERVGG (RPGRIP1L CC1 42-97 L57F (Mus musculus, UniProt Q8CG73); sequence looked up) | itself | SEC-MALS | – | – | – | subunits per oligomer | 2 |
| B3 (TGFBI 45-632 R124H) | itself | SEC | – | – | – | subunits per oligomer | 2 |
| B4 (ACAT1 35-427 C126A) | itself | native gel | – | C126A mutant | – | subunits per oligomer | 4 |
| B5 | itself | AUC | – | – | – | subunits per oligomer | 2 |
| PSMC1 (human) | CYB5R4 knockout human cells | PP4 interaction, 3xFLAG-PP4C IP-MS | – | concentration not given | baseline: CYB5R4 KO over parental | log2 fold change | -0.76 |
| B6 (Saro_1862 1-406 E16K) | itself | SEC | – | – | – | subunits per oligomer | 2 |
| B7 (ADH1 mature) | itself | native MS | – | – | – | subunits per oligomer | 4 |
| B8 (lacI 1-360) | itself | SEC | – | – | – | subunits per oligomer | 4 |
| PARP4, human | CYB5R4 knockout human cells | PP4 interaction, 3xFLAG-PP4C IP-MS | – | concentration not given | baseline: CYB5R4 KO over parental | log2 fold change | -2.39 |
| B9 (SERPINA1 25-347 C232S) | itself | AUC | – | velocity sedimentation | – | subunits per oligomer | 2 |
| B10 (Streptavidin N23A/S27D/S45A) | itself | co-refolding, SDS-PAGE | – | – | – | subunits per oligomer | 4 subunits |
| B11 (dlg1 1-97 A8T) | itself | SEC | – | – | – | subunits per oligomer | 2 |
| B12 | itself | SEC-MALS | – | – | – | subunits per oligomer | 2 |
| MDH1, N-terminal acetylation (Homo sapiens, UniProt P40925) | itself | native MS | – | – | – | subunits per oligomer | 2 |
| B13 (PHYA F389E) | itself | SEC | – | – | – | subunits per oligomer | 2 |

Repeated from above:
| Substance | tested on | test | test system | conditions | how to read | quantity | result |
| --- | --- | --- | --- | --- | --- | --- | --- |
| B7 (ADH1 mature) | itself | native MS | – | – | – | subunits per oligomer | 4 |
| B8 (lacI 1-360) | itself | SEC | – | – | – | subunits per oligomer | 4 |
